Assay results collected from several papers.
A part holds a random share of what one study measured.

Sample 1
Target: PABPC1L2, full length, GST fusion (mouse, UniProt A0ABA7IW68)
Technique: RNAcompete
Form: RNA
Sample: in vitro
Concentration: 20 nM
Notes: 7-mer, probes averaged, single round
Baseline: mean of 7-mers
Reading: higher = stronger binding
Target sequence (chain): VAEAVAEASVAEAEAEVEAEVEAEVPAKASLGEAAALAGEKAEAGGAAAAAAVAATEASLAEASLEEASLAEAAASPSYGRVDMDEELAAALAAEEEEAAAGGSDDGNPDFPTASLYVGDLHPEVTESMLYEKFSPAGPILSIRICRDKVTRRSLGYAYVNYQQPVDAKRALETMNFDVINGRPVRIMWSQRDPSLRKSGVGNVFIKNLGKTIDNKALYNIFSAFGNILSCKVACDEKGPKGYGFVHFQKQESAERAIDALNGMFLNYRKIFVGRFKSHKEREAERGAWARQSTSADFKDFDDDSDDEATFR
| Strand | 7-mer Z-score |
| --- | --- |
| UGAUCAA | 0.0986 |
| UGGGGCA | 0.483 |
| CACCCGC | -0.318 |
| UUCAACU | -0.315 |
| UCAUCAA | -0.0899 |
| GAGUUUA | -0.36 |
| CGAAAUG | -0.0645 |
| UAGAUGA | -0.0826 |
| AGUCUGU | -0.275 |
| CAAUCGU | -0.104 |
| AAUGCUC | 0.00436 |
| AACGAGG | 0.2 |
| CUGUGUU | -0.376 |
| ACGCAGA | 0.131 |
| CUUCUUU | -0.199 |
| GCCCUCU | -0.329 |

Sample 2
Target: Histone acetyltransferase KAT6A, winged helix 1, GST fusion (KAT6A, Homo sapiens, UniProt Q92794, residues 1-85)
Technique: protein binding microarray
Form: double-stranded DNA, one strand shown
Sample: in vitro
Concentration: not given
Notes: 8-mer, flanks averaged, mean of 2 arrays, mostly near background
Baseline: not given
Reading: higher = stronger binding
Target sequence (chain): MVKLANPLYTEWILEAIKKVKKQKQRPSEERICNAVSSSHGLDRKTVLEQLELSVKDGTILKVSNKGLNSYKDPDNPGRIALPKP
| Strand | E-score |
| --- | --- |
| GATAACGC | 0.247 |
| GTGGCTGA | -0.0623 |
| GGCAACGA | 0.0709 |
| AATAAGAA | -0.131 |
| ACCACATC | -0.197 |
| GAATAGGA | -0.0158 |
| ATACGCTG | 0.134 |
| AATGGCAC | -0.00845 |
| GAGGTTGA | -0.139 |
| ATCAGGGA | -0.195 |
| CAATTATC | 0.12 |
| AATGGCGG | 0.143 |
| GTTCCAAA | -0.24 |
| GCATGCTA | 0.00867 |
| CACCACAG | -0.321 |
| CGTGAGGC | 0.116 |
| AGATCTAC | -0.0445 |
| ACTGCGAA | 0.0789 |
| GTAGTAAA | -0.179 |
| ATCTTGAA | -0.192 |
| CCCTATAG | -0.0426 |
| GTCAGGAC | -0.188 |

Sample 3
Target: Interferon regulatory factor 7, full length, phosphomimetic (IRF7, Homo sapiens, UniProt Q92985, residues 1-503, S471D/S472D/S475D/S476D/S477D/S483D/S484D/S487D)
Technique: protein-binding microarray
Form: double-stranded DNA, one strand shown
Sample: in vitro
Concentration: 2200 nM top
Notes: 60-bp whole probe
Together with: salmon DNA 0.4 mg/ml
Baseline: random background probes
Reading: higher = stronger binding
Constant ends, left off below: GCCTAGCAC … GTCTTGATTCGCTTGACGCTGCTG
Residues (chain): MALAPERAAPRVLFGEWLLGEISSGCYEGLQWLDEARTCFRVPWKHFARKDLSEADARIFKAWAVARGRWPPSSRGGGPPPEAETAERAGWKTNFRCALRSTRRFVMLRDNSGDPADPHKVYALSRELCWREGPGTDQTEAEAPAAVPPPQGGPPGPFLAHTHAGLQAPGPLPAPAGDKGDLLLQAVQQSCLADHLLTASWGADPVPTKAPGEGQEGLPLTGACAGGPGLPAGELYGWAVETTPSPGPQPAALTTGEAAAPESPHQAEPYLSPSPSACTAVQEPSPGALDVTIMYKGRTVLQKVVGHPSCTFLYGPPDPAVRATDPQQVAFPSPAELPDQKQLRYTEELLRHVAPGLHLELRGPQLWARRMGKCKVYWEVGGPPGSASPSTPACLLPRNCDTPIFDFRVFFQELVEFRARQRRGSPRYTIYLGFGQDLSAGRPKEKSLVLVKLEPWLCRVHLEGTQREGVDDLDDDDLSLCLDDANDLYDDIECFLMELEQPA
| Strand | fitted relative affinity |
| --- | --- |
| TTAGGACTGGGTATCGGGTAGTGCTAG | -0.635 z-score |
| TCAAATTCCTGAAATCTCACTGTGCTA | -0.153 z-score |
| TTAGGACTGCTTTTCCTCTAGTGCTAG | 0.811 z-score |
| GACGATCTCAGTTTCGAGTCGTGCTAG | 5.97 z-score |
| TTACCTCTCACGCATCTGAAAGTGCTA | 1.54 z-score |
| TTAGGTATCCTTATCCTTTTGTGCTAG | 0.999 z-score |
| TAAGGACTGGGTATCGGTTAGTGCTAG | -0.273 z-score |
| TTACGTCTCGGACTGGGTTAGTGCTAG | 1.08 z-score |
| TTGGTTTCTGGTTTATTGAGGTGCTAG | 4.88 z-score |
| TTAGGTTTCGGGTAACGGTTAGTGCTA | 5.13 z-score |
| TACGATCTCAGACTGGAGACGTGCTAG | 0.0153 z-score |
| TTAGCACTGCTACTGCTTTAGTGCTAG | 0.23 z-score |
| TCAACTTTAAATTAGACACTGTGCTAG | -0.456 z-score |
| TTAGGTTTCGGTTTCGGTAAGTGCTAG | 14.1 z-score |
| TTAGATTTCCGTTCCGATTAGTGCTAG | 2.92 z-score |
| GACGGACGGGGGTATCGGGACGTGCTA | 0.457 z-score |
| TTAGATATCGGGTGTCGATTAGTGCTA | 0.0854 z-score |
| TTTGCTTTCTTTTTGCACTCGTGCTAG | 5.88 z-score |
| TTAGGTCTCGGATTGGGTTAGTGCTAG | 0.869 z-score |
| TTAGAACTGGGGTTTCGATTTGTGCTA | 6.11 z-score |
| TTAGGTTTCGCGTATCGGTTAGTGCTA | 3.13 z-score |
| GACGGTATCGGACTGGGTACGTGCTAG | -0.33 z-score |
| TTAGGACTGCTTTTCCTGTAGTGCTAG | 0.683 z-score |
| TTAGGACAGCTACTGCTTTAGTGCTAG | -0.495 z-score |
| CTCTATTGCTTTCTCTTTCAGTGCTAG | 4.18 z-score |

Sample 4
Target: Probable WRKY transcription factor 11, DNA-binding domain (WRKY11, Arabidopsis thaliana, UniProt Q9SV15, residues 228-325)
Technique: DNA-protein interaction ELISA
Form: double-stranded DNA, one strand shown
Sample: in vitro, bacterial lysate
Concentration: not given
Notes: whole dsDNA probe, crude lysate protein
Baseline: highest signal in screen
Reading: higher = stronger binding
Target sequence (chain): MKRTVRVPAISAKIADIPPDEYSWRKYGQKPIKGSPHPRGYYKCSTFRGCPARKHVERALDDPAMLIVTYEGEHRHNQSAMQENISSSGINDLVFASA
| Strand | relative absorbance |
| --- | --- |
| AAAAAATATCTGATCCAATTTAGGTCAAAA | 43.5 % of maximum |
| AAAAAATCCTATCTTGGCTTTGGCCTAAAA | 15.6 % of maximum |
| AAAAAACATAACCGCAAAATCCCTACAAAA | 13.8 % of maximum |
| AAAAAATGTTTTTTAGAGGTGTGCAAAAAA | 14.7 % of maximum |
| AAAAAAAAGCGTTACATCATATGGAAAAAA | 15 % of maximum |
| AAAAAAGGGTTTAGATGTCCTTCAAAAAAA | 15 % of maximum |
| AAAAAAAGTCTGCGGCTGCAGGGCGGAAAA | 47.5 % of maximum |
| AAAAAACCGATCATCACATATCACTGAAAA | 13.8 % of maximum |
| AAAAAATCCTTTTCTCTTTCTGTTTCAAAA | 14.1 % of maximum |
| AAAAAAACTCTAGGTCAATATTATTCAAAA | 76.7 % of maximum |
| AAAAAAGGTGAGGAAGTTGGGTATGGAAAA | 17.3 % of maximum |
| AAAAAACATTGATAAAATCTCCAGGCAAAA | 15.3 % of maximum |
| AAAAAAAATCTTAGCTCTATCTCATCAAAA | 17.3 % of maximum |
| AAAAAACTCCCTCTCCTCTGTCTTCCAAAA | 16.1 % of maximum |
| AAAAAAACTCAACTAGTGAACCACCAAAA | 16.7 % of maximum |
| AAAAAAGTTTCTGCTTTCCCTTTCGTAAAA | 15 % of maximum |
| AAAAAACCCGGTTGGAGAAAATAATTAAAA | 13.3 % of maximum |
| AAAAAAATTTTTAGTTTTAATTTTGGAAAA | 15.6 % of maximum |
| AAAAAATTTGGTCTTCGTCCTCGCTTAAAA | 27.4 % of maximum |
| AAAAAAAAGGACATTTTTTCTTTTTGAAAA | 13.5 % of maximum |
| AAAAAATCTATTCCATTTCGCCTTCTAAAA | 16.7 % of maximum |
| AAAAAATAGTACCGCTAATGGCTGACAAAA | 15 % of maximum |
| AAAAAAACGGTGTCATAGTATTAGTGAAAA | 14.1 % of maximum |
| AAAAAATACATTTGACTTTGGGTTTCAAAA | 91.9 % of maximum |
| AAAAAATACGTCTACGTGGTTGTCGTAAAA | 18.2 % of maximum |

Sample 5
Target: RNA binding protein fox-1 homolog 2, RRM domain, GST-SBP tag (RBFOX2, Homo sapiens, UniProt O43251-10, residues 100-194)
Technique: RNA Bind-n-Seq
Form: RNA
Sample: in vitro
Concentration: 365 nM
Notes: natural RNA segment, single round, ends assumed
Baseline: no-protein control
Reading: higher = stronger binding
Constant ends, left off below: GGGAGUUCUACAGUCCGACGAUC … UGGAAUUCUCGGGUGCCAA
Construct (chain): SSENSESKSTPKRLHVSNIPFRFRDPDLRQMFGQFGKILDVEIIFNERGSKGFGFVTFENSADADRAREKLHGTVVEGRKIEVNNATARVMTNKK
| Strand | RBNS enrichment (R) |
| --- | --- |
| CUGGGAGUUGAUCGCCUUUCCCAGGUGCUACACCCUUUUCCAGCUGGAUGAGAAUUUGAGUGCUCUGAUCCCUCUACAGAGCUUCCCUGACUCAUUCUGAAGGAGCCCCA | 1.09 |
| GGGCGAACCGUUUUCGCUCGUGUGUCUGUACGCAGCAUGUUGGGAUCGGGAGUUUCGGCACAGACUAUCCCAUCAAGCCGUUGGCUCCUUUCAGCUACUACGUUACCACG | 0.358 |
| GAAGAGAGAGAUAGGGUAUAGGCUGAUAUUGCCCCUCCUGUUUGGGUCCCAUCUACUGUGGUCCACUGAGCCCAAUUUGAUAUGUAAAUACACCUCAAAUUUGGAAAGUU | 0.459 |
| CUAUACAUUUAGGUAAUGAAUGGUAGUAGAACUAAUAGCUUUAACAGGAGAAUAGGGAAUGAGAAAUAGAAAUCCAAGGCUGAAGCCAAAAGUAAGGAGGGUGGCCAAAU | 3.05 |
| CCAAUAUAGUUUUCUAACUCCUGUUUGGGGAGCAAGUGUUAAUAAUAACUUAUUCCUAAAGCUUGGUUUUUCUUUUUUGUGAUUUUAUUGUGUAUAUGAGUGGUGGGUAC | 1.23 |
| AAAAAGAUCAGGCUUUCUGACUUCCAUCCCCAAAACACAUUUACCAGCAUACUCCAAACUGUUUCUGAUGUGUUCCAUGAGAAAAGGAUUGUUUGCUCAAAAAGCUUGGA | 0.387 |
| GUGUUGAAUUUCCUUUUUAUGCAUCAAACGAAGGCCAUAUUGUCCAUAAAUGCUCAGUGCUCAGGAUCUCAUUAAUAUGCCGAACCUAACUACAGAUGACUUUUUAAUAU | 0.53 |
| AGCACCCUGGAGAGUGCACAUGCCCCUUGGUCCUGGCAGGGCGCCAAGUCUGGCACCAUGUUGGCCUCUUCAGGCCUGCUAGUCACUGGAAAUUGAGGUCCAUGGGGGAA | 0.334 |
| CUACAACCUGUUCUGGGACAGUAUCAAUACUGAUGAGCAACCUGGCACACAAACUAUGAGCAGACCACUUCAGCUUGAGAAUGCAGUGGGUCUGAAGAUGGUCAAGUCUG | 5.96 |
| UGUAGCUGUGAGGCUCAGAUGGACUGGGAGGAGGGGGGAGGGUGAUACAUUAAUUAAUGGCUUCGUUAAUUAAUGUCAUGUUGCUUGUUGCUUUCUCAGUGUGUGUAUGG | 0.769 |
| ACAGGACAGAAGCGGCCUUUGAAGAACGACGAACUAUAACCCCCACCUCUGUUUUCCCCAUUCAUCUCCACCCCCUUCCCCCACCACUUCUAUUUAUUUAACAUCGAGGG | 1.02 |
| CUGCUGCUUCUGCAUUGCUCCGCGCUCUUGUGAAAUACUGGUUCUGUUUUCUUUAUUCCUUUUGCACUCUCGGUUCCCACCUUUGUGUUGGAGUUUACCAUGUUACCCUG | 0.953 |

For quick reference, copied from above (sample 1):
| Strand | 7-mer Z-score |
| --- | --- |
| CACCCGC | -0.318 |
| UUCAACU | -0.315 |
| UCAUCAA | -0.0899 |
| GAGUUUA | -0.36 |
| CGAAAUG | -0.0645 |
| UAGAUGA | -0.0826 |
| AGUCUGU | -0.275 |
| CAAUCGU | -0.104 |
| AAUGCUC | 0.00436 |
| AACGAGG | 0.2 |
| CUGUGUU | -0.376 |
| ACGCAGA | 0.131 |
